Measured values from different studies.
Each line is one published result; not all experiments were run side by side. Several values in a cell are separate wells, animals, samples, runs or records. ± gives the spread as reported.

SMILES | tested on | test | test system | setting | how to read | measurement | result
CC(C)C[C@H](NC(=O)C[C@H](O)[C@H](CC(C)C)NC(=O)[C@H](Cc1c[nH]cn1)NC(=O)CNC(=O)[C@@H](NC(=O)[C@H](C)NC(=O)[C@H](Cc1c[nH]c2ccccc12)NC(=O)[C@H](CCC(N)=O)NC(=O)[C@@H](Cc1ccccc1)NC(=O)COCCOCCNC(=O)CCC(C(=O)O)N1CCN(CC(=O)O)CCN(CC(=O)O)CCN(CC(=O)O)CC1)C(C)C)C(N)=O (stereo partly drawn) [lutetium-177 labelled] | – | – | BALB/c nu/nu mice, liver | intravenous, 750 pmol, 1 h, together with: PA 300 µg | – | tissue uptake | 0.4 ± 0.1 %ID/g
c1coc(-c2n[nH]cc2-c2ccnc3ccccc23)c1 | PKH3 (Candida albicans) | kinase binding, MIB/MS competition | Candida albicans lysate | 10 µM | relative to: DMSO | log2 fold change | -0.12
NCCOc1cc(NC(=O)c2cc(OCc3ccc(F)cc3)cc(C(=O)Nc3cc(OCCN)c4ccccc4n3)n2)nc2ccccc12 | c-kit1 G-quadruplex DNA | FRET melting | – | 1 µM, pH 7.4, together with: 60 mM potassium | – | ΔTm | 15.5 ± 0.6 K
CC(Nc1nc(N2CCCC2)nc2ccccc12)c1ccccc1 (stereo not drawn) | transportin-1/2 | FUS nuclear import, high content imaging | HeLa Kyoto reporter | 100 µM, 2 h | – | cells with nuclear reporter | 99.5%
C#Cc1cc(-c2cc(Nc3nc(N[C@@H](C)c4ccc(F)cn4)ncc3Cl)n[nH]2)ccc1C=O | FGFR1OP-FGFR1 kinase fusion, human | kinase activity, inhibitor | – | 0.2 µM | – | inhibition | 67.5% and 68.5%
CCCCCCCC(=O)OC[C@H](COP(=O)(O)O[C@@H]1[C@H](O)[C@H](O)[C@@H](OP(=O)(O)O)[C@H](OP(=O)(O)O)[C@H]1O)OC(=O)CCCCCCC | Kv7.2/Kv7.3(EEE) mutant channel | activator | – | model 5 | – | cooperativity factor | 5.36
N#Cc1ccc2c(c1)[C@H]1CCCN(C(=O)c3ccc4[nH]cnc4c3)[C@H]1C2 | – | item: FPG | human | 240 mg once daily, day 28, adjusted mean, together with: metformin | relative to: placebo | change from baseline | 1.6 mg/dL
NC(=O)c1cnc2[nH]ccc2c1N[C@@H]1[C@@H]2CC3C[C@H]1C[C@@](O)(C3)C2 | – | flow cytometry | Japanese healthy men, blood | oral, 10 mg twice daily, 72 h after day 7 dose | relative to: baseline | CD4+ effector memory change | 0.42%
CN(C)CCOc1cc(NC(=O)c2cc(Cl)cc(C(=O)Nc3cc(OCCN(C)C)c4ccccc4n3)n2)nc2ccccc12 | c-kit1 G-quadruplex DNA | FRET melting | – | 1 µM, pH 7.4, together with: 60 mM potassium | – | ΔTm | 19.6 ± 0.4 K
C[n+]1cccc2cc(C=NNC(=O)c3ccc4ccc5ccc(C(=O)NN=Cc6ccc7c(ccc[n+]7C)c6)nc5c4n3)ccc21.[I-].[I-] | G-quadruplex DNA 22CTA antiparallel | UV melting | – | 6 µM, K10 buffer, together with: DNA 3 µM | – | delta Tm | > 40 °C
Cn1cc(-c2ccc(-c3cncc(Cl)c3N3CCC4(CCNC4=O)CC3)cc2)cn1 | COLO 205 | gene expression, microarray, item: BAMBI mRNA | – | concentration not given, 6 h | relative to: untreated cells | log2 fold change | 3.14
Oc1ccccc1-c1n[nH]cc1-c1ccnc2ccccc12 | PKH3 (Candida albicans) | kinase binding, MIB/MS competition | Candida albicans lysate | 10 µM | relative to: DMSO | log2 fold change | 0.32

A few entries again:
SMILES | tested on | test | test system | setting | how to read | measurement | result
NCCOc1cc(NC(=O)c2cc(OCc3ccc(F)cc3)cc(C(=O)Nc3cc(OCCN)c4ccccc4n3)n2)nc2ccccc12 | c-kit1 G-quadruplex DNA | FRET melting | – | 1 µM, pH 7.4, together with: 60 mM potassium | – | ΔTm | 15.5 ± 0.6 K
